Published values pooled from the literature.
Lines come from different studies, so protocols differ. Numbers after ± are the reported error.
G-protein coupled receptor 39: G-protein coupled receptor 39 (Mus musculus, UniProt Q5U431)
Chain of UniProt Q5U431 (whole entry, looked up): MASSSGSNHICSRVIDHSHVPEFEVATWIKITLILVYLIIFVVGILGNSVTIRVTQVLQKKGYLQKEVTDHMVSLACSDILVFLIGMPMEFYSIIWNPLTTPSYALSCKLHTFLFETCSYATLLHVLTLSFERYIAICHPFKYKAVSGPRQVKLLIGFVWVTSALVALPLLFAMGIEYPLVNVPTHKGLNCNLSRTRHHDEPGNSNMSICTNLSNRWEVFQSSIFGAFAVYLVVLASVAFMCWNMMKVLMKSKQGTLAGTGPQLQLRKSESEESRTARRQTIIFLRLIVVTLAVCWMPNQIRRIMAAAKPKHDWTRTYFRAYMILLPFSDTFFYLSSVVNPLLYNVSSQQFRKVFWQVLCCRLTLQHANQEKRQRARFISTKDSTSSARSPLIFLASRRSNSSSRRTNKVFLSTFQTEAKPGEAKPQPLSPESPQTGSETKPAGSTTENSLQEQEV
Kir3.1/Kir3.2: Kir3.1/Kir3.2 (Homo sapiens, UniProt P48051+P48549)
Chain of UniProt P48549 (whole entry, looked up): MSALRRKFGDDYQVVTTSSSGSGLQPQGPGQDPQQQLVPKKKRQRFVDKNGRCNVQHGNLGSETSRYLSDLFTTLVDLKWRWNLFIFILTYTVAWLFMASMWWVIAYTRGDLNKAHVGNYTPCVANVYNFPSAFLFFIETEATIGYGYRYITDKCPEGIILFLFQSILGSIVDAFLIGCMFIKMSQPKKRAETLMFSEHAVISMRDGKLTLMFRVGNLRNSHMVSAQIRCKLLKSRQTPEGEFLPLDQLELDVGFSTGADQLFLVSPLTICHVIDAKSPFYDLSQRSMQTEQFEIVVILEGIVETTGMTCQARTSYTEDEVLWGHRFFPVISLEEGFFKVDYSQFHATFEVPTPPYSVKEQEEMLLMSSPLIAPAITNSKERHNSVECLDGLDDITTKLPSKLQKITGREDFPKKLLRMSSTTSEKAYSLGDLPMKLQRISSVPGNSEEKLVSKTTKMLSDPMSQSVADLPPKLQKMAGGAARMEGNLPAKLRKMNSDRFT
Chain of UniProt P48051 (whole entry, looked up): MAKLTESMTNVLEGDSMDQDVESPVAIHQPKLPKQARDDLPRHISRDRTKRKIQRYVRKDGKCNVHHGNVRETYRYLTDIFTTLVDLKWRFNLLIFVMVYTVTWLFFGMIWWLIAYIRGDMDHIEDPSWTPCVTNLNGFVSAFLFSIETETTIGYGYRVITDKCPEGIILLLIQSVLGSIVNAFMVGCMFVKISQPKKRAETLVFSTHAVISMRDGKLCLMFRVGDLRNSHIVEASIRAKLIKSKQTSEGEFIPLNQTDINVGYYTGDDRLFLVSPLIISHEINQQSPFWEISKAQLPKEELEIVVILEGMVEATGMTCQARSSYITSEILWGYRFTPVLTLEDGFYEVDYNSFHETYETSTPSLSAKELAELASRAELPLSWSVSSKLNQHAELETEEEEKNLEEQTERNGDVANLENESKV
CXCL8: Interleukin-8 (CXCL8, Homo sapiens, UniProt P10145)
Chain of UniProt P10145 (whole entry, looked up): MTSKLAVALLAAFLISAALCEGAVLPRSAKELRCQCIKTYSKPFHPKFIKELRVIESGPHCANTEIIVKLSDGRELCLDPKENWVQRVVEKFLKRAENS
GPBAR1: G-protein coupled bile acid receptor 1 (GPBAR1, Homo sapiens, UniProt Q8TDU6)
Chain of UniProt Q8TDU6 (whole entry, looked up): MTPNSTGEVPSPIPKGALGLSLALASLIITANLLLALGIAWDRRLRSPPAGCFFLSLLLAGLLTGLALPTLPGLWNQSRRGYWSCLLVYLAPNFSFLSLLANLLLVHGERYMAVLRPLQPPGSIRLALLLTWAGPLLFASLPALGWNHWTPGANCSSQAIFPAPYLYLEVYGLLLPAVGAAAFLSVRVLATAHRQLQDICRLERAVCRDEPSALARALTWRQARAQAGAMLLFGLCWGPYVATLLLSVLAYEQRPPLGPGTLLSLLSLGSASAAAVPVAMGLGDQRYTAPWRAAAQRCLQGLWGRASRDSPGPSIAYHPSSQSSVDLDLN
ADGRG1: ADGRG1 (Homo sapiens, UniProt Q9Y653)
Chain of UniProt Q9Y653 (whole entry, unmodified, looked up): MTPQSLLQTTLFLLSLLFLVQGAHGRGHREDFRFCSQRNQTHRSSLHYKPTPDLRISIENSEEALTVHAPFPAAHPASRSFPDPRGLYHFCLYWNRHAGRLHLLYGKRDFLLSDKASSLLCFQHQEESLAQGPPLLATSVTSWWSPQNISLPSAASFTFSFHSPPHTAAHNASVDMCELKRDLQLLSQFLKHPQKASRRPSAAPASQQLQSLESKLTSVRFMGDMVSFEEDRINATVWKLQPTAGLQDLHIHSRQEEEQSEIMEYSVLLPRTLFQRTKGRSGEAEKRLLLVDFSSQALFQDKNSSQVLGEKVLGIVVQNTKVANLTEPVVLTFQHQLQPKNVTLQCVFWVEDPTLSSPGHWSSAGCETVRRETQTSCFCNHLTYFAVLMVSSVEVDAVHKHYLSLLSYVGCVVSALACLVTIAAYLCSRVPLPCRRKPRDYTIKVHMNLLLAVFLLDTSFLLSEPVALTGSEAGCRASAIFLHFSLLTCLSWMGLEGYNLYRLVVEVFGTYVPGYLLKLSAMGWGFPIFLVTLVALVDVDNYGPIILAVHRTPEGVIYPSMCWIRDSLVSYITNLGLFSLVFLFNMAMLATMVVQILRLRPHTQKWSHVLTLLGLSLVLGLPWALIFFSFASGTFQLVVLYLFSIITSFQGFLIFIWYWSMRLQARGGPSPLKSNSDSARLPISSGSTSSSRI
NPBWR1: Neuropeptides B/W receptor type 1 (NPBWR1, Homo sapiens, UniProt P48145)
Chain of UniProt P48145 (whole entry, looked up): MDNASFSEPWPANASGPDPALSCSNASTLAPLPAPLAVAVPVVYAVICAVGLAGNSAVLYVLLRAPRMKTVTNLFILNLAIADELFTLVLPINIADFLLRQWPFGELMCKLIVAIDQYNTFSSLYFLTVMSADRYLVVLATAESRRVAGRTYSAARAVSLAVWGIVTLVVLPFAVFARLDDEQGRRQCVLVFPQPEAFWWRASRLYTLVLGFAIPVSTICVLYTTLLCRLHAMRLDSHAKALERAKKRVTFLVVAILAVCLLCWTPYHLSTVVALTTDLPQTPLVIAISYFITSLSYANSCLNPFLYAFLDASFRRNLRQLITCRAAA
Chain of UniProt P25103 (whole entry, looked up): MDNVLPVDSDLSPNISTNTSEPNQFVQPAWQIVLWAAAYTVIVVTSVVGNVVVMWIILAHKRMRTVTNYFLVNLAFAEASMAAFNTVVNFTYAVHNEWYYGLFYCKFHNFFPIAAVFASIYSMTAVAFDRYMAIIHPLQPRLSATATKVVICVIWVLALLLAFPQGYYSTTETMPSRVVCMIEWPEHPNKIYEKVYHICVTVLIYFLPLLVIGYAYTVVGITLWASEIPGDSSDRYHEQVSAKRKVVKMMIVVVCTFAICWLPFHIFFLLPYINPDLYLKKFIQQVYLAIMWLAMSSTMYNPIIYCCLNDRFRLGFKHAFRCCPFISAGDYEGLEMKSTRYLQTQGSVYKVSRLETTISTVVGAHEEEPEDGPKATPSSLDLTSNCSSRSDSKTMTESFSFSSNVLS
Chain of UniProt Q2G036 (whole entry, looked up): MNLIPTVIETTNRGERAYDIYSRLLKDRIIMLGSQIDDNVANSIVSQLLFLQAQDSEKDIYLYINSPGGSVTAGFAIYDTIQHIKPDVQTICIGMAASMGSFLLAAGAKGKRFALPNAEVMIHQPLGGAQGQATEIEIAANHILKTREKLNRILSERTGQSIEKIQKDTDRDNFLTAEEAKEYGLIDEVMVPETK

CC(CCC(=O)O)C1CCC2C3CCC4CC(OS(=O)(=O)O)CCC4(C)C3CC(O)C12C (stereo not shown) — EC50 (G-protein coupled receptor 39; calcium signal, agonist, fluorescence): > 200 µM
O=C(Cc1ccc(OCc2ccccc2)cc1)NC1(C(=O)O)CCN(C(=O)c2ccc(-c3cccc(Cl)c3)cc2)CC1 — EC50 (Lysophosphatidic acid receptor 5 (LPAR5, Homo sapiens, UniProt Q9H1C0); cAMP, agonist, luciferase): > 10 µM
O=C(COc1ccc(C(F)(F)F)cc1C(F)(F)F)Nc1cc(C2CCC2)nn1CC(F)(F)F — EC50 (Kir3.1/Kir3.2; activator, thallium flux; HEK293): 3 µM
CC(=O)N[C@@H]1[C@@H](O[C@@H]2O[C@H](C(=O)O)[C@@H](O[C@@H]3O[C@H](CO)[C@@H](OS(=O)(=O)O)[C@H](O[C@@H]4O[C@H](C(=O)O)[C@@H](OS(=O)(=O)O)[C@H](OS(=O)(=O)O)[C@H]4OS(=O)(=O)O)[C@H]3NC(C)=O)[C@H](OS(=O)(=O)O)[C@H]2OS(=O)(=O)O)[C@H](OS(=O)(=O)O)[C@@H](CO)O[C@H]1N=[N+]=[N-] — EC50 (CXCL8; fluorescence polarization competition; CXCL8 800 nM, 100% DW, together with: TAMRA-labelled probe): 12.5 ± 3.6 µM
CC[C@H](C)[C@H]1C(=O)N(Cc2cc3ccccc3c3ccccc23)C[C@@H]2N(C(=O)NCCCC(F)(F)F)CCC(=O)N12 — EC50 (ATP-dependent Clp protease proteolytic subunit (clpP, Staphylococcus aureus, UniProt Q2G036); activator): 1.3 µM
C[C@H](CCC(=O)NCC(=O)O)[C@H]1CC[C@H]2[C@@H]3CC[C@@H]4C[C@H](OS(=O)(=O)O)CC[C@]4(C)[C@H]3CC[C@]12C — EC50 (GPBAR1; agonist): > 200 µM
CC(=O)N[C@@H]1[C@@H](O[C@@H]2O[C@H](C(=O)O)[C@@H](O[C@@H]3O[C@H](COS(=O)(=O)O)[C@@H](OS(=O)(=O)O)[C@H](O[C@@H]4O[C@H](C(=O)O)[C@@H](OS(=O)(=O)O)[C@H](OS(=O)(=O)O)[C@H]4OS(=O)(=O)O)[C@H]3NC(C)=O)[C@H](OS(=O)(=O)O)[C@H]2OS(=O)(=O)O)[C@H](OS(=O)(=O)O)[C@@H](COS(=O)(=O)O)O[C@H]1N=[N+]=[N-] — EC50 (CXCL8; fluorescence polarization competition; CXCL8 800 nM, 100% DW, together with: TAMRA-labelled probe): 12.5 ± 2.9 µM
COc1ccc(C2(C(=O)N3CCC(Nc4nc5ccccc5c(=O)[nH]4)CC3)CC2)cc1 — EC50 (MRGPRD (Homo sapiens, UniProt Q8TDS7); miniGq recruitment, agonist, BRET1; HEK293T): 0.212 µM
CCc1cc(NC(=O)COc2cc(Cl)ccc2Cl)n(CC(F)(F)F)n1 — EC50 (Kir3.1/Kir3.2; activator, thallium flux; HEK293): 0.501 µM
CC(=O)N[C@@H]1[C@@H](O[C@@H]2O[C@H](C(=O)O)[C@@H](OS(=O)(=O)O)[C@H](OS(=O)(=O)O)[C@H]2OS(=O)(=O)O)[C@H](OS(=O)(=O)O)[C@@H](COS(=O)(=O)O)O[C@H]1N=[N+]=[N-] — EC50 (CXCL8; probe displacement, FP competition; protein 800 nM, together with: TAMRA-labelled sHA tetramer probe): 556 ± 67 µM
CC1=C(C(=O)OC2CCCC2)C(c2ccccc2C(F)(F)F)C2=C(CC(C)(C)CC2=O)N1 (stereo not shown) — EC50 (ADGRG1; G13 activation, agonist, GTPγS binding, reconstitution): 1.75 ± 0.13 µM
CC(CCC(=O)NCC(=O)O)C1CCC2C3CCC4CC(OS(=O)(=O)O)CCC4(C)C3CC(O)C12C (stereo not shown) — EC50 (G-protein coupled receptor 39; calcium signal, agonist, fluorescence): > 200 µM
CC(C)Oc1cc(Cl)ccc1CNc1cc(-c2ccccc2)nc2ncnn12 — EC50 (G-protein coupled receptor 3 (GPR3, Homo sapiens, UniProt P46089, V155A); cAMP level, agonist, cAMP GloSensor; V155A mutant): 0.122 µM
CC(CCC(=O)NCCS(=O)(=O)O)C1CCC2C3CCC4CC(O)CCC4(C)C3CC(O)C12C (stereo not shown) — EC50 (G-protein coupled receptor 39; calcium signal, agonist, fluorescence): > 200 µM
CCc1cc(NC(=O)COc2ccc(C(F)(F)F)cc2C(F)(F)F)n(C2CCC(F)(F)CC2)n1 — EC50 (Kir3.1/Kir3.2; activator, thallium flux; HEK293): 0.33 µM
Cn1c(=O)n(C2CCC(=O)NC2=O)c2ccc(C3CCN(CC(=O)Nc4cccc(CS(=O)(=O)N5CC[C@H](Nc6cccc(-c7sc(C(=O)O)c(OCC(=O)O)c7Cl)c6)CC5(C)C)c4)CC3)cc21 (stereo partly shown) — EC50 (Dual specificity protein phosphatase 10 (Homo sapiens, UniProt Q9Y6W6); phosphatase activity; together with: DiFMUP substrate): > 10 µM
CC1=NC(C)C(C)S1 (stereo not shown) — EC50 (uncharacterized protein (Puma concolor, UniProt A0A6P6H1F7); cAMP, agonist; HEK293 transfected with uncharacterized protein): 441 ± 31.2 µM
CC(=O)N[C@@H]1[C@@H](O[C@@H]2O[C@H](C(=O)O)[C@@H](O[C@@H]3O[C@H](COS(=O)(=O)O)[C@@H](O)[C@H](O[C@@H]4O[C@H](C(=O)O)[C@@H](O)[C@H](O)[C@H]4O)[C@H]3NC(C)=O)[C@H](O)[C@H]2O)[C@H](O)[C@@H](COS(=O)(=O)O)O[C@H]1N=[N+]=[N-] — EC50 (CXCL8; fluorescence polarization competition; CXCL8 800 nM, 100% DW, together with: TAMRA-labelled probe): 3410 ± 507 µM
CC(C)(O)c1ccn2c(-c3ccc(F)c(-c4ccc(F)cc4C#N)c3)cnc2c1F — EC50 (Gamma-aminobutyric acid receptor subunit alpha-1 (GABRA1, Homo sapiens, UniProt P14867, G251D); Western blot, refers to: GABRA1 G251D protein level; HEK293T stably expressing α1 G251D; 24 h): 2.6 ± 0.1 µM
CC(CCC(=O)NCC(=O)O)C1CCC2C3CCC4CC(O)CCC4(C)C3CC(O)C12C (stereo not shown) — EC50 (GPBAR1; agonist): 1.9 ± 0.7 µM
COc1ccc(C(=O)c2c(C(=O)NCCCN(C)C)oc3ccc(Cl)cc3c2=O)cc1OC — EC50 (Growth hormone secretagogue receptor type 1 (GHSR, Homo sapiens, UniProt Q92847, R199A); Gαq dissociation, TRUPATH BRET; HEK293T): 0.0741 µM
CC(=O)N[C@@H]1[C@@H](O[C@@H]2O[C@H](C(=O)O)[C@@H](O[C@@H]3O[C@H](COS(=O)(=O)O)[C@@H](OS(=O)(=O)O)[C@H](O[C@@H]4O[C@H](C(=O)O)[C@@H](O[C@@H]5O[C@H](COS(=O)(=O)O)[C@@H](OS(=O)(=O)O)[C@H](O[C@@H]6O[C@H](C(=O)O)[C@@H](OS(=O)(=O)O)[C@H](OS(=O)(=O)O)[C@H]6OS(=O)(=O)O)[C@H]5NC(C)=O)[C@H](OS(=O)(=O)O)[C@H]4OS(=O)(=O)O)[C@H]3NC(C)=O)[C@H](OS(=O)(=O)O)[C@H]2OS(=O)(=O)O)[C@H](OS(=O)(=O)O)[C@@H](COS(=O)(=O)O)O[C@H]1N=[N+]=[N-] — EC50 (Stromal cell-derived factor 1 (CXCL12, Homo sapiens, UniProt P48061); binding, fluorescence polarization competition; CXCL12 60 nM, 80% DW, together with: TAMRA probe): 0.119 ± 0.024 µM
COc1ccc(OC[C@H]2c3cccn3CC(=O)N2Cc2cccc(F)c2)cc1 — EC50 (Grin2a/Grin2c (Rattus norvegicus, UniProt Q00959+Q00961); activator; cells): 1.6 µM
CSCC[C@H](NC(=O)[C@H](CC(C)C)NC(=O)CNC(=O)[C@H](Cc1ccccc1)NC(=O)[C@H](Cc1ccccc1)NC(=O)[C@@H](N)CCC(N)=O)C(N)=O — EC50 (Substance-P receptor, with miniGs (TACR1, Homo sapiens, UniProt P25103); miniGs recruitment, BRET; HEK293; 30 min): 1 µM
CC(C)C[C@H](NC(=O)[C@H](CC(C)C)NC(=O)CNC(=O)[C@H](C)NC(=O)[C@H](C)NC(=O)[C@H](CCCNC(=N)N)NC(=O)CNC(=O)CCCCNC(=O)CCCCNC(=O)CCCCNC(=O)[C@H](CCCCN)NC(=O)[C@H](Cc1ccc(O)cc1)NC(=O)[C@@H](N)Cc1cn(C)c2ccccc12)C(N)=O — EC50 (NPBWR1; calcium signal, agonist): > 10 µM
CC(CCC(=O)NCCS(=O)(=O)O)C1CCC2C3C(O)CC4CC(O)CCC4(C)C3CCC12C (stereo not shown) — EC50 (G-protein coupled receptor 39; calcium signal, agonist, fluorescence): > 200 µM
COc1ccccc1C1C(C(=O)OC2CCCC2)=C(C)NC2=C1C(=O)CC(C)(C)C2 (stereo not shown) — EC50 (ADGRG1; G13 activation, agonist, GTPγS binding, reconstitution): 6.91 ± 1.02 µM
CC(CCC(=O)NCC(=O)O)C1CCC2C3C(O)CC4CC(O)CCC4(C)C3CC(O)C12C (stereo not shown) — EC50 (GPBAR1; agonist): 27.7 ± 5.3 µM
Nc1ncnc2c1ncn2[C@@H]1O[C@H](COP(=O)(O)OP(=O)(O)OC[C@H]2OC(O)[C@H](O)[C@@H]2O)[C@@H](O)[C@H]1OP(=O)(O)O (stereo partly shown) — EC50 (TRPM2 (Nematostella vectensis, UniProt A7T1N0, M197C); agonist): 0.3 ± 0.008 µM
CC(CCC(=O)NCCS(=O)(=O)O)C1CCC2C3C(O)CC4CC(OS(=O)(=O)O)CCC4(C)C3CCC12C (stereo not shown) — EC50 (GPBAR1; agonist): > 200 µM
CC(C)C[C@H](NC(=O)[C@H](CC(C)C)NC(=O)CNC(=O)[C@H](C)NC(=O)[C@@H](C)NC(=O)[C@H](CCCNC(=N)N)NC(=O)CNC(=O)CCCCNC(=O)CCCCNC(=O)CCCCNC(=O)[C@H](CCCCN)NC(=O)[C@H](Cc1ccc(O)cc1)NC(=O)[C@@H](N)Cc1c[nH]c2ccccc12)C(N)=O — EC50 (NPBWR1; calcium signal, agonist): 0.578 µM

Some of these lines once more:
CC(CCC(=O)O)C1CCC2C3CCC4CC(OS(=O)(=O)O)CCC4(C)C3CC(O)C12C (stereo not shown) — EC50 (G-protein coupled receptor 39; calcium signal, agonist, fluorescence): > 200 µM
O=C(Cc1ccc(OCc2ccccc2)cc1)NC1(C(=O)O)CCN(C(=O)c2ccc(-c3cccc(Cl)c3)cc2)CC1 — EC50 (Lysophosphatidic acid receptor 5 (LPAR5, Homo sapiens, UniProt Q9H1C0); cAMP, agonist, luciferase): > 10 µM
O=C(COc1ccc(C(F)(F)F)cc1C(F)(F)F)Nc1cc(C2CCC2)nn1CC(F)(F)F — EC50 (Kir3.1/Kir3.2; activator, thallium flux; HEK293): 3 µM
CC(=O)N[C@@H]1[C@@H](O[C@@H]2O[C@H](C(=O)O)[C@@H](O[C@@H]3O[C@H](CO)[C@@H](OS(=O)(=O)O)[C@H](O[C@@H]4O[C@H](C(=O)O)[C@@H](OS(=O)(=O)O)[C@H](OS(=O)(=O)O)[C@H]4OS(=O)(=O)O)[C@H]3NC(C)=O)[C@H](OS(=O)(=O)O)[C@H]2OS(=O)(=O)O)[C@H](OS(=O)(=O)O)[C@@H](CO)O[C@H]1N=[N+]=[N-] — EC50 (CXCL8; fluorescence polarization competition; CXCL8 800 nM, 100% DW, together with: TAMRA-labelled probe): 12.5 ± 3.6 µM
